Measurements from different studies.
Parts stem from different laboratories: compare values within a part only.

Study 1 — method: RNA Bind-n-Seq; form: RNA; matrix: in vitro; concentration: 365 nM; reference: no-protein control; reading: higher = stronger binding
Target: RNA binding protein fox-1 homolog 2, RRM domain, GST-SBP tag (RBFOX2, Homo sapiens, UniProt O43251-10, residues 100-194)
Setting: natural RNA segment, single round, ends assumed
`GGGAGUUCUACAGUCCGACGAUCCCGCUUACUCUGGAUGCAGAUGGCUGCUGCCGAUCCACUCUGUCUUUCUCGGGCUGCUUUUGCGUCGUUGUCCUAGGUGGCCAGAUUGUCUUGAUAAGAGCAGAUCUGGGUGGAAUUCUCGGGUGCCAA` — result for “RBNS enrichment (R)”: 0.525.
For `GGGAGUUCUACAGUCCGACGAUCAGUUAUUUAAUUAUUAAAGGUGCCACGGUGGGACCUUUGGGAUGACUUAAAAAGGGUUCUUUGUUGGGAGUCAAGUGACAGAGCAGACCUGGCCGCAGGGAGUUGUUCUGUGGAAUUCUCGGGUGCCAA`, “RBNS enrichment (R)” read 0.416.
`GGGAGUUCUACAGUCCGACGAUCGUGUGGUCUCCCCUUGUUUGGGGCUCAUACUGGGUAAGAGGCCCAGGAUAGCCAGCUUGCUUCUCUGUUAUGUUACCAUGCAUUUCUAAAACCACUCCAGCUGUUAAUCUUGGAAUUCUCGGGUGCCAA` — result for “RBNS enrichment (R)”: 1.61.

Study 2 — method: aptamer microarray, sandwich; form: DNA with 2'F-ANA; matrix: in vitro; concentration: 200 nM; added: Cy3 exosite-II aptamer, 400 nM; reading: higher = stronger binding
Target: Prothrombin, mature alpha-thrombin (F2, Homo sapiens, UniProt P00734)
Setting: whole 15-mer aptamer, many near background
`GGTTGGTGTGGTTGG (2'F-ANA at 2 4 5 7 9 11)`: “mean fluorescence intensity” 59.3 a.u.
`GGTTGGTGTGGTTGG (2'F-ANA at 2 3 5 6 7 9 10 11 14 15)`: “mean fluorescence intensity” 51.5 a.u.
`GGTTGGTGTGGTTGG (2'F-ANA at 3 4 5 6 9 11 12 14 15)`: “mean fluorescence intensity” 50.3 a.u.

Study 3 — method: protein-binding microarray; form: double-stranded DNA, one strand shown; matrix: in vitro; concentration: not given; reading: higher = stronger binding
Target: Transcription factor Sp1 (SP1, Homo sapiens, UniProt P08047, residues 1-785, full length assumed)
Chain of UniProt P08047 (whole entry, looked up): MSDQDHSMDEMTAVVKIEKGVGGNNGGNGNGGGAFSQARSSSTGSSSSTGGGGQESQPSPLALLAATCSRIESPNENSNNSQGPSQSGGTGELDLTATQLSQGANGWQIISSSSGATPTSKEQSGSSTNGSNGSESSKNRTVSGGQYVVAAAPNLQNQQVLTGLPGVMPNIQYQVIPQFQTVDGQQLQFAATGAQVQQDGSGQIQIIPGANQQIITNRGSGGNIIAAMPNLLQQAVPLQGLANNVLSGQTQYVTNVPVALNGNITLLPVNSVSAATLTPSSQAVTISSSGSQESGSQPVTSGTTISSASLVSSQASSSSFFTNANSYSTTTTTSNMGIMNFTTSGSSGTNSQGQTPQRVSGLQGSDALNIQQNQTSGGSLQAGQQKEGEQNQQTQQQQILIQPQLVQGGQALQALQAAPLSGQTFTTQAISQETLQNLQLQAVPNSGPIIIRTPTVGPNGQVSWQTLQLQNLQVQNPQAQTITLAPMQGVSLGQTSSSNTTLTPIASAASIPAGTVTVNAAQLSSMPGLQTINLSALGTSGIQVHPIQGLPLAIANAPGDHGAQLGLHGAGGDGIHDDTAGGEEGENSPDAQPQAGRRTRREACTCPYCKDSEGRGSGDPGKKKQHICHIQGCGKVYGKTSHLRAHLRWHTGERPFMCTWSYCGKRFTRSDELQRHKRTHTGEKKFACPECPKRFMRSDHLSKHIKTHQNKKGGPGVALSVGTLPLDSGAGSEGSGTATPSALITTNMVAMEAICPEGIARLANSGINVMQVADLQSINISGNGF
Setting: k-mer, scored over probes, only values ≥0.25
For `CCCACACC`, the E-score was 0.358.
For `GGCGTGGA`, the E-score was 0.302.
For `ACATGGTA`, the E-score was 0.256.
With `ATAAGTTA` the E-score was 0.277.

Single results of other studies
With `PhoQ, residues 284 288 289 292 302 303 SLANKL` the fold induction was 13.3 (PhoP, residues 12 14 15 18 19 FWNTL (Escherichia coli, UniProt P23836); Sort-seq, item: YFP reporter; E. coli; PhoQ-PhoP variant library, added: 10 µM Mg2+; reference: high Mg2+ state, higher = stronger signaling).

For quick reference, copied from above (study 1):
`GGGAGUUCUACAGUCCGACGAUCCCGCUUACUCUGGAUGCAGAUGGCUGCUGCCGAUCCACUCUGUCUUUCUCGGGCUGCUUUUGCGUCGUUGUCCUAGGUGGCCAGAUUGUCUUGAUAAGAGCAGAUCUGGGUGGAAUUCUCGGGUGCCAA` — result for “RBNS enrichment (R)”: 0.525.
